Measurements gathered from unrelated publications.
Each line is one published result; not all experiments were run side by side. ± gives the spread as reported.
APP: Amyloid-beta precursor protein (APP, Homo sapiens, UniProt P05067)
Chain of UniProt P05067 (whole entry, looked up): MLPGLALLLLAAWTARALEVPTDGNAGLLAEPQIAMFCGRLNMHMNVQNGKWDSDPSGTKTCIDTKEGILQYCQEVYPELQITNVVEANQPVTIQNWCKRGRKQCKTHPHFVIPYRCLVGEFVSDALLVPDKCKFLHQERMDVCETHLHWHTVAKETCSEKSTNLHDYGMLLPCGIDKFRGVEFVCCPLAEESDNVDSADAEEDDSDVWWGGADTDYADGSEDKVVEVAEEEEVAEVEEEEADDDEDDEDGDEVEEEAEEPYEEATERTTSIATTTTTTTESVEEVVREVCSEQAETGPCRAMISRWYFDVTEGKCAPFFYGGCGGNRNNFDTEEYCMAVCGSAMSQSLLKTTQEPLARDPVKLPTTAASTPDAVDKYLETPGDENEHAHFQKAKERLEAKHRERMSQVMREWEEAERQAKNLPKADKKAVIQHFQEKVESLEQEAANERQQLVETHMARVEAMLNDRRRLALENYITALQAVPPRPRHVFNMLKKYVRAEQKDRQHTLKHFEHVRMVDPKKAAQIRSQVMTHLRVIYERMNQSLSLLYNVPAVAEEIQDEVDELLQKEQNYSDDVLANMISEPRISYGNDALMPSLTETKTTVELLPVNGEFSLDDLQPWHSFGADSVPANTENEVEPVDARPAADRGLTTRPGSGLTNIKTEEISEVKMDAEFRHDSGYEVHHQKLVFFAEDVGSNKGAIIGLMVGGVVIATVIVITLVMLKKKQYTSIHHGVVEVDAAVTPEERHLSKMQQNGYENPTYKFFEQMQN

For `Oc1ccc2c(c1)OC[C@]1(O)Cc3cc(O)c(O)cc3[C@H]21`, “decrease of ThT fluorescence” read greater than 90% (APP; fibril remodelling; 25 µM, 10 h, pH 7.4, 37 °C, with: preformed Aβ42 fibrils, equimolar).
Under ThT fluorescence, `CC1=C(/C=C/C(C)=C/C=C/C(C)=C/C=C/C=C(C)/C=C/C=C(C)/C=C/C2=C(C)C[C@@H](O)CC2(C)C)C(C)(C)C[C@H](O)C1` is recorded as “decreased” (APP; amyloid beta aggregation, inhibitor; 100 µM, 3 h, 37 °C; relative to: untreated).
For `CC[C@H](C)[C@H](NC(=O)[C@@H](NC(=O)[C@@H](N)C(C)C)C(C)C)C(=O)N[C@@H](CC(C)C)C(N)=O`, the inhibition was 30% (APP; amyloid aggregation, inhibitor, fluorescence; 4 µM, 24 h).
`CCC(C(=O)C=Cc1ccc(O)c(OC(F)(F)F)c1)C(=O)C=Cc1ccc(O)c(OC(F)(F)F)c1` (centres unmarked) gave a band density of 949 ± 147% (APP; Aβ aggregation, SDS-PAGE western blot, refers to: Aβ1-42 75-200 kDa band; 30 µM, 24 h, 37 °C, with: Aβ1-42 10 µM; relative to: DMSO).
`CC[C@H](C)[C@H](NC(=O)[C@@H](NC(=O)CN)C(C)C)C(=O)N[C@@H](C)C(N)=O` has an inhibition of 64.5% (APP; amyloid aggregation, inhibitor, fluorescence; 4 µM, 24 h).
For `COC(=O)CCC(C(=O)C=Cc1ccc(O)c(F)c1)C(=O)C=Cc1ccc(O)c(F)c1` (centres unmarked), the band density was 1030 ± 313% (APP; Aβ aggregation, SDS-PAGE western blot, refers to: Aβ1-42 75-200 kDa band; 30 µM, 24 h, 37 °C, with: Aβ1-42 10 µM; relative to: DMSO).
`O=S1(=O)OC(c2ccc(O)cc2)(c2ccc(O)cc2)c2ccccc21`: ThT fluorescence “decreased” (APP; amyloid beta aggregation, inhibitor; 100 µM, 3 h, 37 °C; relative to: untreated).
`COc1ccc(C=CC(=O)C(CCC(=O)OC(C)(C)C)C(=O)C=Cc2ccc(OC)c(F)c2)cc1F` (centres unmarked) has a band density of 313 ± 98% (APP; Aβ aggregation, SDS-PAGE western blot, refers to: Aβ1-42 75-200 kDa band; 30 µM, 24 h, 37 °C, with: Aβ1-42 10 µM; relative to: DMSO).
Under “time to complete degradation”, `CC[C@H](C)[C@@H]1NC(=O)[C@H]([C@@H](C)O)NC(=O)[C@H](Cc2ccc(O)cc2)NC(=O)[C@H](CCCNC(=N)N)NC(=O)[C@@H]2CCCN2C(=O)[C@H]2CCCN2C(=O)[C@H]([C@@H](C)O)NC(=O)[C@H](C(C)C)NC(=O)[C@H](C(C)C)NC(=O)[C@H](CCCCN)NC(=O)[C@H](CO)NC(=O)[C@H](CCC(N)=O)NC(=O)[C@H](CO)NC(=O)[C@H](Cc2ccc(O)cc2)NC(=O)[C@H](CO)NC(=O)[C@H](Cc2ccc(O)cc2)NC(=O)[C@@H]2CCCN2C(=O)[C@H](CO)NC(=O)[C@H](CC(C)C)NC(=O)[C@H](CC(C)C)NC(=O)[C@H](C)NC(=O)[C@H](C)NC1=O` is recorded as no more than 50 min (Amyloid-beta precursor protein, Aβ40 (APP, Homo sapiens, UniProt P05067); proteolysis by proteinase K, refers to: amyloid beta; 1.4 µM, 24 h preincubation, 37 °C, with: 20 µM amyloid beta, proteinase K 0.5 µg/mL).
For `CCCCC/C=C\C/C=C\C/C=C\C/C=C\CCCC(=O)O`, ThT fluorescence read “decreased” (APP; amyloid beta aggregation, inhibitor; 100 µM, 3 h, 37 °C; relative to: untreated).
For `CC[C@@H](C)[C@@H](NC(=O)[C@@H](N)C(C)C)C(=O)N[C@H](C(=O)N[C@@H](C)C(N)=O)[C@@H](C)CC`, the inhibition was 35.1% (APP; amyloid aggregation, inhibitor, fluorescence; 4 µM, 24 h).

A few entries again:
For `CC[C@H](C)[C@H](NC(=O)[C@@H](NC(=O)[C@@H](N)C(C)C)C(C)C)C(=O)N[C@@H](CC(C)C)C(N)=O`, the inhibition was 30% (APP; amyloid aggregation, inhibitor, fluorescence; 4 µM, 24 h).
`CCC(C(=O)C=Cc1ccc(O)c(OC(F)(F)F)c1)C(=O)C=Cc1ccc(O)c(OC(F)(F)F)c1` (centres unmarked) gave a band density of 949 ± 147% (APP; Aβ aggregation, SDS-PAGE western blot, refers to: Aβ1-42 75-200 kDa band; 30 µM, 24 h, 37 °C, with: Aβ1-42 10 µM; relative to: DMSO).
